Measured values of several laboratories.
Every numbered part comes from another study and shows a few of its results, in no order. Positions count from the first letter of the parent shown.

Sample 1 — target: UBE2V2 UBC core domain (UniProt Q15819); technique: yeast two-hybrid; medium: yeast; setting: mostly zero background; baseline: not given; direction: higher = stronger interaction
Sequence of UniProt Q15819 (whole entry, looked up): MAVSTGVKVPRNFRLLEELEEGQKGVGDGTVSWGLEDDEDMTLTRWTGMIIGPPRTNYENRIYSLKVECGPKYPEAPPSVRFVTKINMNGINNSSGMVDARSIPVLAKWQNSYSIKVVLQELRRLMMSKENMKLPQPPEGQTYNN
B1: RNF133 RING domain (UniProt Q8WVZ7); chain DEEINPNGDSCVICFERYKPNDIVRILTCKHFFHKNCIDPWILPHGTCPICKCDILKVLGIQ
B2: RBCK1 RING domain (UniProt Q9BYM8); chain SLVLNTEPAECPVCYSVLAPGEAVVLRECLHTFCRECLQGTIRNSQEAEVSCPFIDNTYSCSGKLLEREIK
B3: SH3RF1 RING domain (UniProt Q7Z6J0); chain DESALLDLLECPVCLERLDASAKVLPCQHTFCKRCLLGIVGSRNELRCPECRTLVGSGVEEL
B4: RNF121 RING domain (UniProt Q9H920); chain MPTKHLSDSVCAVCGQQIFVDVSEEGIIENTYRLSCNHVFHEFCIRGWCIVGKKQTCPYCKEKVDLKRMFS
B5: UBOX5 RING domain (UniProt O94941); chain EQPGSILGPECASCKRVFSPYFKKEPVYQLPCGHLLCRPCLGEKQRSLPMTCTACQRPVASQDVLR
B6: MAP3K1 RING domain (UniProt Q13233); chain NSIKDEEEQMCPICLLGMLDEESLTVCEDGCRNKLHHHCMSIWAEECRRNREPLICPLCRSKWRSHDFYS
B7: MDM4 RING domain (UniProt O15151); chain MEDCQNLLKPCSLCEKRPRDGNIIHGRTGHLVTCFHCARRLKKAGASCPICKKEIQLVIKVF
B8: TRIM62 RING domain (UniProt Q9BVG3); chain MACSLKDELLCSICLSIYQDPVSLGCEHYFCRRCITEHWVRQEAQGARDCPECRRTFAEPALAP
Molecule | lacZ reporter activity
B1 (RNF133 RING domain) | 0
B2 (RBCK1 RING domain) | 0
B3 (SH3RF1 RING domain) | 0
B4 (RNF121 RING domain) | 0
AMYLQENGIDCPKCKFSYALARGGCMHFHCTQCRHQFCSGCYNAFYAKNKC (RNF31 RING domain (UniProt Q96EP0)) | 0
PEDRESLKSACVVCLSSFKSCVFLECGHVCSCTECYRALPEPKKCPICRQAITRVIPLY (MUL1 RING domain (UniProt Q969V5)) | 0
AVPSGLEENLCKICMDSPIDCVLLECGHMVTCTKCGKRMNECPICRQYVIRAVHVF (RFFL RING domain (UniProt Q8WZ73)) | 0
B5 (UBOX5 RING domain) | 0
KETIKKTTKPCPRCHVPVEKNGGCMHMKCPQPQCRLEWCWNCGCEWNRVCMG (PRKN RING domain (UniProt O60260)) | 0
B6 (MAP3K1 RING domain) | 0
B7 (MDM4 RING domain) | 0
B8 (TRIM62 RING domain) | 0

Sample 2 — target: CCNB2, cyclin fold, Cln2 fusion (human); technique: yeast growth competition, sequencing; medium: yeast; setting: weak parent motif; baseline: not given; direction: higher = stronger binding
Starting sequence: CDKN1C docking peptide (human); TSACRSLFGPVDH; partner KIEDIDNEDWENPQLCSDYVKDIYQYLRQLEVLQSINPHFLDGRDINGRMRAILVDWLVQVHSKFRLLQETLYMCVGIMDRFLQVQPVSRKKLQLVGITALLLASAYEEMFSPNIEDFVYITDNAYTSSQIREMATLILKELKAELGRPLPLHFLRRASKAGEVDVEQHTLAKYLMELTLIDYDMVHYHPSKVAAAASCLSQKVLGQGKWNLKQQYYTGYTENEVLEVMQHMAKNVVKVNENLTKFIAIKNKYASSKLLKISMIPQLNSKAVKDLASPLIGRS
Substitution | normalised enrichment score
T1A | 0.284
R5A | -0.302
R5K F8L | 0.111
F8A | 0.152
D12A | 0.0803
F8L | 0.125
S2A | 0.0688
C4A | 0.0404
R5A L7A | -0.132

Sample 3 — technique: EMSA with sequencing; form: double-stranded DNA, one strand shown; medium: in vitro; concentration: 10 and 20 nM; baseline: negative control set to 0; direction: higher = stronger binding
Target: Hepatocyte nuclear factor 3-alpha (Foxa1, Mus musculus, UniProt P35582, residues 1-468, full length assumed)
Sequence of UniProt P35582 (whole entry, looked up): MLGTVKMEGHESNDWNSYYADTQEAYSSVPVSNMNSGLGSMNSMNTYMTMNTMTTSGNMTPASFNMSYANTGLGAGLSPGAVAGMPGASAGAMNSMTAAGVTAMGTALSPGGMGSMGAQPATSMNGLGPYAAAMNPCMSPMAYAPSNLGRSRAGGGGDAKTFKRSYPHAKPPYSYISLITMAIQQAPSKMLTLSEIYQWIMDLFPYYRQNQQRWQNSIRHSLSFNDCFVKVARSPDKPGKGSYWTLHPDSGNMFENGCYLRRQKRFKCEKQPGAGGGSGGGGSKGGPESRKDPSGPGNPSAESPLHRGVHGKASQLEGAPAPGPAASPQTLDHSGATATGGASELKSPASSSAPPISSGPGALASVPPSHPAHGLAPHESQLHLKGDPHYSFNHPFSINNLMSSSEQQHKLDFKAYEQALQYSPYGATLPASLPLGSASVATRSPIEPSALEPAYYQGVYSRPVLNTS
Setting: whole designed probe, mean of two concentrations, ends assumed
Strand | normalised bound fraction
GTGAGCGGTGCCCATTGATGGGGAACCCTTTGGGTTATTCACCTAGATCCCTTAAGGTTTAAAATCAATTCTACAGGGACTTTTGAACTTAGACTTTCACTCCATATGTTAGGACTTATTATTTACATTATAGTTTGCTGTTAACTTAGCTGTTTATGTAGGTGTTCAAAGCTACATGAACGGCGAACTATAAGGTAAATAAGAAGCTTTCCCAAGACATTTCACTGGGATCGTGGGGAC | 0.411 ratio
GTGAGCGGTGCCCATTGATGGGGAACCTTTAAGGATTTCAATGTTATAAATAAAAGCTAAGTCCACTGTCATTCATTTTTTATGTCCTACAACAAGGTTACAAAATTAAAATCATATAAAGTAATCTTGAAGAGGAAAAGCTTGATCTACTCAATGCATCCACTTCTTCCCAGTTCTCCCCATCCTCTGCCAAGTTGTACCAGGGAGAGTGAAGGAGAATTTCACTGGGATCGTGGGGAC | -0.068 ratio
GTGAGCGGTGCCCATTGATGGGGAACGGCTCCAAACGGCTGAATCAGCATTTTCAGAAACAAAGTGTTCTAGGCCTGGCCTTTTAAACAGCAGGTTGTGCAATCAACGAGCAAAACGCATATTTACTCACGAGCTCTCCTTGTTTTGGTCTTTCCCCCCTCCCCCCCATCTCTTGAATGAAACTGGGCACCAAGTTTGCAAGAAAATATTCTTTCAAACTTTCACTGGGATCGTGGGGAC | 0.132 ratio
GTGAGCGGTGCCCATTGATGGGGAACCTGTTTTGATGATTTAGTAAAAAAAAAACTCTCCAAAATATTAATTTTCCATGTATACTTTCACAATTGTTTCCATATTTGTATATTTCCTGTAAATTACTTAATATTTCTAAGAGTACCTACAAGATGGCCTTTGCATTTAAAAGGAAAATATAAATAGAAGCTGTACTTCTTCTAATTCATATGAAAACGATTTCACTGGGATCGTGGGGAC | 0.0718 ratio
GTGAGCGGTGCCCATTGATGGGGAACGGAGCAATGCCGGCTGGTGGCCTGGCCGCTCCGCCCCTTCCCTACCCCTCGCGGAGGGCCCGCCCCCTGCCCCGCGCCGGCTAGCGGAGGAGAGTAAATACAACAGGAGCGCAAAATGGCGGAACCGCCGAGCCCCGTGCACTGTGTCGCTGCCGCGGCCCCCACCGCCACCGTCTCGGAGAAAGAACCGTTTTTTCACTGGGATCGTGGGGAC | 0.23 ratio
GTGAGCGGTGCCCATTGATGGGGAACCAATTTCTTAAGCTCAAAGTTAATGTTTTCTTTTTCTTTTTTATCTTTTTCTCACTTTTGGTTCCTTTTGATAGCTTTTGGGGAGAAAAAATATGTAATCTTGCATTTACTCGTCATATTTCTTGAAGTCAAGACCTTTCACAAACCTGTTTGAAGTATTTTATAGTTCCTGACATCTTTTACAATAAATAATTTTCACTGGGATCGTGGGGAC | 0.116 ratio

Sample 4 — technique: RNA Bind-n-Seq; form: RNA; medium: in vitro; concentration: 365 nM; baseline: no-protein control; direction: higher = stronger binding
Target: RNA binding protein fox-1 homolog 2, RRM domain, GST-SBP tag (RBFOX2, Homo sapiens, UniProt O43251-10, residues 100-194)
Setting: natural RNA segment, single round, ends assumed
Target sequence (chain): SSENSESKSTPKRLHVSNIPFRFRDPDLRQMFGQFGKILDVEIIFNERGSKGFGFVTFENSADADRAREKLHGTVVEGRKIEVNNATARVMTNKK
Strand | RBNS enrichment (R)
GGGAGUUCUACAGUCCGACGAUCUGUUUUUAAUGUAAAGGUUAAACUUGAAAAGAAAUUCUUAAUCACGGUGCCAAAAUUCAUUUUCUAACACCAUGUGUUAGAAAAUUAUAAAAAAUAAAAUAAUUUUAGAAUGGAAUUCUCGGGUGCCAA | 0.911
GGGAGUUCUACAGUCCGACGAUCGAAAAAAAUCCAACUUUAUUCCUAAGUUUUAAUUGUUAGAAAGUAUUUUCGGAGCCAGUGAUGCUCUUUAAAGGAGUUAUUUCUUCCAAAGAAGCAAGACGAGCCAGGUUUGGAAUUCUCGGGUGCCAA | 0.387
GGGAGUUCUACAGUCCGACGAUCUAGCCGCUGCCACCGUGUAUAAAUCCUGGUGUAUGCUCCUUAUCCUGGACAUGAAUGUAUUGUACACUGACGCGUCCCCACUCCUGUACAGCUGCUUUGUUUCUUUGCAAUGGAAUUCUCGGGUGCCAA | 0.695
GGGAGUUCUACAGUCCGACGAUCUAUUGUUUUUCUAACAUGGCUUCAUUAAACGUUUAAGUAUUUUAAAAAUAUGUAAUAUUUGGACCAGAUGUUGUGAAUAAUAGUAGAGAUAAAGCUAUUUUAUUCUGUAUUGGAAUUCUCGGGUGCCAA | 0.402
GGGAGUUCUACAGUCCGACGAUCCUAAGCAUUCAGAAGACAGAGGCAGGAAGAAAAUUCAAAAAUGGGGCUGGAGAGAUGGCUCAGUGGUUAAAAGCACUGGCUGCUCUUGGUCAGGACACUAGUUCAGUUCCUGGAAUUCUCGGGUGCCAA | 0.35
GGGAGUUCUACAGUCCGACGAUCUAAAAAUUCAAUGAGUAAAACAAAAGCUAGUCAAAUGUGUUAGCAGCAUGCAGAACAAAAACUUUAAACUUUCUCUCUCACUAUACAGUAUAUUGUCAUGUGAAAGUGUGUGGAAUUCUCGGGUGCCAA | 12.7
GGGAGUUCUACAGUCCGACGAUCGAUCUUUGCCCAUGGAAGUCUCAAAGAUCUUUCGUUGGUUGUUUCUCUGAGCUUUGUUACUGAAAUGAGCCUCGUGGGGAGCAUCAGAGAAGGCCAGGAAGAAUGGUGUGUGGAAUUCUCGGGUGCCAA | 4.62
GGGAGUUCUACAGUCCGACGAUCUCAGUUUCAGCAACAAACAAACUUUGUUUGGGAAGCUAUGGAGGAGGACUUUUAGAUUUAGUGAAGAUGGUAGGGUGGAAAGACUUAAUUUCCUUGUUGAGAACAGGAAAUGGAAUUCUCGGGUGCCAA | 0.658
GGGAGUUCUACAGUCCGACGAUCUGGUUAUGUUACAAAUUCAUAUUCUGUUACUACAGUAAACGUUAAGAGUUUUAAACAGUUAAGAUUGUACAAUUUUUCUUCUUUUCUAUAUUACAAGGGCCCCAGUGUUAUGGAAUUCUCGGGUGCCAA | 0.617
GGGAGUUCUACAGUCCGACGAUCAACAUUAUUUUUAUUUUGACUUUUUUUCAAACAGUAAGAAUAAUAUAUCAGCAGCAUGUAUCUGCCAUCAUAUGUAAUAAAUUUCUUAUUUUGCCAAAACCACUUCAGAUUGGAAUUCUCGGGUGCCAA | 2.89
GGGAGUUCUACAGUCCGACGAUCUAAUAUCAAAAGAAAUUUGAUAUUUUUGUAAGAAUUUCCUGAGUACAAUGCUUUAUUGAAAAGCUUCAAAGUUCAUUAAGCUGAUGCAGUGCUUAGAGAGAGCAAUGUCCUGGAAUUCUCGGGUGCCAA | 0.639
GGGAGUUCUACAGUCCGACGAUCACAUUAUUAUAAGGGAUUUGUUAUGUCUGUAAAGUGUAACCUAGGAAGGAUCAUCAACCAUCUAAUCAAAAUGGAUCUGGAUUAUUACUCUGUAAAAUUCACAGCAGUAAUGGAAUUCUCGGGUGCCAA | 0.346

For quick reference, copied from above (sample 4):
Strand | RBNS enrichment (R)
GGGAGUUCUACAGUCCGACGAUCUGUUUUUAAUGUAAAGGUUAAACUUGAAAAGAAAUUCUUAAUCACGGUGCCAAAAUUCAUUUUCUAACACCAUGUGUUAGAAAAUUAUAAAAAAUAAAAUAAUUUUAGAAUGGAAUUCUCGGGUGCCAA | 0.911
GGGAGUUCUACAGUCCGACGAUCUAGCCGCUGCCACCGUGUAUAAAUCCUGGUGUAUGCUCCUUAUCCUGGACAUGAAUGUAUUGUACACUGACGCGUCCCCACUCCUGUACAGCUGCUUUGUUUCUUUGCAAUGGAAUUCUCGGGUGCCAA | 0.695
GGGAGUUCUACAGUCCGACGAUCUAUUGUUUUUCUAACAUGGCUUCAUUAAACGUUUAAGUAUUUUAAAAAUAUGUAAUAUUUGGACCAGAUGUUGUGAAUAAUAGUAGAGAUAAAGCUAUUUUAUUCUGUAUUGGAAUUCUCGGGUGCCAA | 0.402
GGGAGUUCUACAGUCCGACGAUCACAUUAUUAUAAGGGAUUUGUUAUGUCUGUAAAGUGUAACCUAGGAAGGAUCAUCAACCAUCUAAUCAAAAUGGAUCUGGAUUAUUACUCUGUAAAAUUCACAGCAGUAAUGGAAUUCUCGGGUGCCAA | 0.346
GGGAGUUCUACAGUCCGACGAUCCUAAGCAUUCAGAAGACAGAGGCAGGAAGAAAAUUCAAAAAUGGGGCUGGAGAGAUGGCUCAGUGGUUAAAAGCACUGGCUGCUCUUGGUCAGGACACUAGUUCAGUUCCUGGAAUUCUCGGGUGCCAA | 0.35
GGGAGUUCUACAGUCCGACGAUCUAAAAAUUCAAUGAGUAAAACAAAAGCUAGUCAAAUGUGUUAGCAGCAUGCAGAACAAAAACUUUAAACUUUCUCUCUCACUAUACAGUAUAUUGUCAUGUGAAAGUGUGUGGAAUUCUCGGGUGCCAA | 12.7
